Results pooled from the literature.
Compare with care: the assays were run in different laboratories.
Cell line: BXPC-3
Read-out: cell growth or viability

With `COc1ccc2c(c1)C(=C1Nc3ccccc3C1=NOCC(O)CO)C(=O)N2` (stereo not drawn) the IC50 was 2.2 µM (MTS; 48 h).
`CCCC(CCC)C(=O)[O][Pt]([Cl])([Cl])[O]C(C)=O.N.N` gave an IC50 of 3.54 µM.
`CCCCCCCCCCCCCCCCCC(=O)Nc1ccn(C2OC(CO)C(O)C2(F)F)c(=O)n1` (stereo not drawn) has an EC50 of 0.04 µM (crystal violet; 72 h).
`N.N.O=C(CCCc1ccccc1)[O][Pt]([Cl])([Cl])[O]C(=O)CCCc1ccccc1` gave an IC50 of 0.19 µM.
`Cc1nn(-c2ccc(S(=O)(=O)N[C@H](CO)CC(C)C)cc2)c2nn3nnnc3nc12` gave an IC50 of 0.21 µM (MTT; 72 h).
For `CCCCCCCCCCCCCCOC(=O)Nc1ccn([C@@H]2O[C@H](CO)[C@@H](O)C2(F)F)c(=O)n1`, the IC50 was 0.53 µM (MTT; 48 h).
The IC50 of `CC(=O)Oc1ccc(/C=C/C(=O)Nc2nc(=O)n([C@@H]3O[C@H](C)[C@@H](OC(C)=O)[C@H]3OC(C)=O)cc2F)c(OC(C)=O)c1` is reported as 45.1 µM (MTT; 72 h).
`CCCC(CCC)C(=O)[O][Pt]1([OH])[O]C(=O)C(=O)[O]1.NC1CCCCC1N` has an IC50 of 19.8 µM.
`COC(=O)[C@@H](Cc1cn(Cc2ccccc2)nn1)NC(=O)OCC1c2ccccc2-c2ccccc21` gave an IC50 of 1.48 µM (MTS; 72 h).
For `CC(=O)Oc1ccc(/C=C/C(=O)Nc2nc(=O)n([C@@H]3O[C@H](C)[C@@H](OC(C)=O)[C@H]3OC(C)=O)cc2F)cc1`, the IC50 was 14 µM (MTT; 72 h).
`COC(=O)[C@@H](Cc1cn(Cc2ccc(C)cc2)nn1)NC(=O)OCC1c2ccccc2-c2ccccc21` gave an IC50 of 2.74 µM (MTS; 72 h).
For `CC(=O)Oc1cccc(/C=C/C(=O)Nc2nc(=O)n([C@@H]3O[C@H](C)[C@@H](OC(C)=O)[C@H]3OC(C)=O)cc2F)c1`, the IC50 was 20.2 µM (MTT; 72 h).

A few entries again:
The IC50 of `CC(=O)Oc1ccc(/C=C/C(=O)Nc2nc(=O)n([C@@H]3O[C@H](C)[C@@H](OC(C)=O)[C@H]3OC(C)=O)cc2F)c(OC(C)=O)c1` is reported as 45.1 µM (MTT; 72 h).
For `CC(=O)Oc1ccc(/C=C/C(=O)Nc2nc(=O)n([C@@H]3O[C@H](C)[C@@H](OC(C)=O)[C@H]3OC(C)=O)cc2F)cc1`, the IC50 was 14 µM (MTT; 72 h).
